Measured values of several laboratories.
Each line is one published result; not all experiments were run side by side. Several values in a cell are separate wells, animals, samples, runs or records. Numbers after ± are the reported error.
Vesicular acetylcholine transporter: Vesicular acetylcholine transporter (Rattus norvegicus, UniProt Q62666)
UniProt Q62666, sequence (whole entry, looked up): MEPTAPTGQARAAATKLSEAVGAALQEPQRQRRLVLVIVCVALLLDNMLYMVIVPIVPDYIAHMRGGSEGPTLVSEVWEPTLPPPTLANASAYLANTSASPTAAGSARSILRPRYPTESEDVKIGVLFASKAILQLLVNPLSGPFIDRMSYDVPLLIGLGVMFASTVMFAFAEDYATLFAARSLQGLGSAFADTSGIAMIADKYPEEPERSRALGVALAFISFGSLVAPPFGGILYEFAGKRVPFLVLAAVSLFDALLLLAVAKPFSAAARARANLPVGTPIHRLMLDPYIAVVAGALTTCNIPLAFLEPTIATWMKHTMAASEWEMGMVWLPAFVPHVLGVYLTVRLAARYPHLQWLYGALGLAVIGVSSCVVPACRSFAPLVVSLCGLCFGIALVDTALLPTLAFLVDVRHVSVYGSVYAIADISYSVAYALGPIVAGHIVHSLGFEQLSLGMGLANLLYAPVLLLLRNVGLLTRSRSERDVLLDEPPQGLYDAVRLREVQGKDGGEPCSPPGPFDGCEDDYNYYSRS
Ribonuclease H1: Ribonuclease H1 (Homo sapiens, UniProt O60930)
UniProt O60930, sequence (whole entry, looked up): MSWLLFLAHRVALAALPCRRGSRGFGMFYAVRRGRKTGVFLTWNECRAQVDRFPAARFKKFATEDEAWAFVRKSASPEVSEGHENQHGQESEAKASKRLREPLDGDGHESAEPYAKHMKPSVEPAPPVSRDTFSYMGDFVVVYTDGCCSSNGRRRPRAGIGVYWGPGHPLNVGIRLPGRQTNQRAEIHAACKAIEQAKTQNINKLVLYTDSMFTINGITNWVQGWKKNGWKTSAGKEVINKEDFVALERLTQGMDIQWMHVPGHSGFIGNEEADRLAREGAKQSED
HTR2C: 5-hydroxytryptamine receptor 2C (HTR2C, Homo sapiens, UniProt P28335)
UniProt P28335, sequence (whole entry, looked up): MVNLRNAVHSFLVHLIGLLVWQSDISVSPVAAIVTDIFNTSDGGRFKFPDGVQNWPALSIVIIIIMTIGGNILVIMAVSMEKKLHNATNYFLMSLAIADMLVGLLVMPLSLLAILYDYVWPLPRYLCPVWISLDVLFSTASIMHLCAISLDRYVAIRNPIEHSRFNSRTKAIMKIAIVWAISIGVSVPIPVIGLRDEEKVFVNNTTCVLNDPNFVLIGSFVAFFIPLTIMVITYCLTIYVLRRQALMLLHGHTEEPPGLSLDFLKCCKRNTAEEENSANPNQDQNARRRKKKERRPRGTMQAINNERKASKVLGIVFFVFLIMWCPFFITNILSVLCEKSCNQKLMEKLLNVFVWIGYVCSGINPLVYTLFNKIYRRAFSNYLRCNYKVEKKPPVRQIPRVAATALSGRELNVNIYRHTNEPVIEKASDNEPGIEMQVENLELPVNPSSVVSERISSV
UniProt P08172, sequence (whole entry, looked up): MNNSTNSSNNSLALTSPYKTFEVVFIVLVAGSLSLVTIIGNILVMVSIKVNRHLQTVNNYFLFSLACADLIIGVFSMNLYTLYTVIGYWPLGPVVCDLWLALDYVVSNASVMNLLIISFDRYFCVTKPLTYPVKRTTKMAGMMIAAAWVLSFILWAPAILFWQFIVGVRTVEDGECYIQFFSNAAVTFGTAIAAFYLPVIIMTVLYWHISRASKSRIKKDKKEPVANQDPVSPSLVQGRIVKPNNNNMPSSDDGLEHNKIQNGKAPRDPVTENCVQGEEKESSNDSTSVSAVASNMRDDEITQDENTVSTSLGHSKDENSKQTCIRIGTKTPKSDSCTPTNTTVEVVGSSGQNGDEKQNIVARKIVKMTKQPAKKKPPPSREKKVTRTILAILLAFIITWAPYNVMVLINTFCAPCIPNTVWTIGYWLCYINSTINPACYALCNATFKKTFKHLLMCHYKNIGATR
UniProt Q13547, sequence (whole entry, looked up): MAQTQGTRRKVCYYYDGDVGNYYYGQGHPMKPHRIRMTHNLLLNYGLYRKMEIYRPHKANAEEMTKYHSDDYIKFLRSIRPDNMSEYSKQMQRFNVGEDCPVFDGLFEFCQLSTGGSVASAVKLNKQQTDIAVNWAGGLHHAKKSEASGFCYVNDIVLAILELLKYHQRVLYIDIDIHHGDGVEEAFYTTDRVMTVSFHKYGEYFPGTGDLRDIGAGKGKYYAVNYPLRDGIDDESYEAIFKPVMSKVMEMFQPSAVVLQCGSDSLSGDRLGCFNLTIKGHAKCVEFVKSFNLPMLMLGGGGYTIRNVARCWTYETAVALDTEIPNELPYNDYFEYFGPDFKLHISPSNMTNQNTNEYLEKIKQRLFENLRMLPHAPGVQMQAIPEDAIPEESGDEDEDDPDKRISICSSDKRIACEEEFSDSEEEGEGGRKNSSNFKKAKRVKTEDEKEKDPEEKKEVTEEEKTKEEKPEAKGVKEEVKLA
UniProt P32214, sequence (whole entry, looked up): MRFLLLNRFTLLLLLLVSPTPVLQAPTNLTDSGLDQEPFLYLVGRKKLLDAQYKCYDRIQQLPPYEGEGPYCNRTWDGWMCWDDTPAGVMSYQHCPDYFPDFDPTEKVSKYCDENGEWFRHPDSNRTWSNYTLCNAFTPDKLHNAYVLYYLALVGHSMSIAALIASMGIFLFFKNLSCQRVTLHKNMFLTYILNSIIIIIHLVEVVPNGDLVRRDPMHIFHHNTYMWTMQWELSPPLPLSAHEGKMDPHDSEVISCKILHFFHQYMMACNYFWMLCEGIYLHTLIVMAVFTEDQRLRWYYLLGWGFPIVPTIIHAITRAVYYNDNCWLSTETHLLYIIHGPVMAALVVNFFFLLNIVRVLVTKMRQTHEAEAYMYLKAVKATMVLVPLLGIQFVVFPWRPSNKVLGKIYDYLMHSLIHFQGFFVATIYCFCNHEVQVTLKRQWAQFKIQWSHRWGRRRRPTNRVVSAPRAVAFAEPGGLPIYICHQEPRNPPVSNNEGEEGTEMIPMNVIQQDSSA
UniProt P16257, sequence (whole entry, looked up): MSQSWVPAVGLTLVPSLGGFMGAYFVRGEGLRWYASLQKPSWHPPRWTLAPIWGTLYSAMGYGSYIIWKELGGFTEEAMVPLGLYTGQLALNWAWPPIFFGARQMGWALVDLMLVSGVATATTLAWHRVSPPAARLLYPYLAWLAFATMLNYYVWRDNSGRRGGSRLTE
UniProt Q9JJ73, sequence (whole entry, looked up): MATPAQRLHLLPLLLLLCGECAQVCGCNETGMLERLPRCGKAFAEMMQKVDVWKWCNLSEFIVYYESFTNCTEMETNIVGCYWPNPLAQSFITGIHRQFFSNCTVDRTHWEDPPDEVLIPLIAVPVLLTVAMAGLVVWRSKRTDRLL

OC1CCCCC1N1CCC(c2ccc(Br)cc2)CC1 (racemic)
Ki (Vesicular acetylcholine transporter; radioligand binding; PC12 expressing VAChT; with: [3H]vesamicol): 0.27 ± 0.02 µM

CC(=O)N[C@@H](CC(C)C)C(=O)N[C@@H](CCCNC(=N)N)C(=O)N[C@H](C(=O)N[C@@H](CCCCN)C(=O)N[C@@H](CCCNC(=N)N)C(N)=O)C(C)C
Ki (proprotein convertase 1/3 (human); inhibitor): 0.86 ± 0.9 µM

Cn1ccc2c(N3CCN(CCCCOc4ccc5c(c4)NC(=O)CC5)CC3)cccc21
Ki (Muscarinic acetylcholine receptor M2 (CHRM2, Homo sapiens, UniProt P08172); ligand displacement, radioligand): 0.195 µM

CC(=O)c1cc(O)c(=O)c(O)cc1C
Ki (Ribonuclease H1; enzyme activity, inhibitor, FRET heteroduplex cleavage; catalytic domain, free enzyme, with: 18-mer RNA/DNA substrate): 64.6 µM

COC1CN([C@H]2CC[C@H]([C@@]3(C)Oc4c(Cl)cc(C(=O)NCc5c(SC)cc(C)[nH]c5=O)c(C)c4O3)CC2)C1
log2 fold change (RNA-seq, refers to: YPEL4; human, whole blood; dose not given, 24 h; baseline: pretreatment baseline): 2.79

O[C@@H]1Cc2cccc(OCCF)c2C[C@H]1N1CCC(c2ccccc2)CC1
Ki (Vesicular acetylcholine transporter; radioligand binding; PC12 expressing VAChT; with: [3H]vesamicol): 0.0059 ± 0.0004 µM

CCc1c(Cl)cccc1N1CCN(C[C@H](F)CCNC(=O)c2cc3ccccc3[nH]2)CC1
Ki (HTR2C; ligand displacement, radioligand; cell membranes): 1.83 µM

Cc1cc(O)c(=O)c(O)cc1C(=O)N1CCN(C(=O)c2cccc3ccccc23)CC1
Ki (Ribonuclease H1; enzyme activity, inhibitor, FRET heteroduplex cleavage; catalytic domain, free enzyme, with: 18-mer RNA/DNA substrate): 3 µM and 5.3 µM

CNc1nc(SCc2ccccc2)nc2c1ncn2[C@H]1[C@H](O)[C@H](O)[C@]2(CO)C[C@H]12
Ki (HTR2C; ligand displacement, radioligand): 0.06 µM

CC(C)C[C@H](NC(=O)[C@H](CCCN)NC(=O)CNC(=O)[C@@H](NC(=O)[C@H](C)NC(=O)[C@@H]1CSCSC[C@H](NC(=O)CC[C@H](N)C(=O)O)C(=O)N[C@@H](CC(N)=O)C(=O)N[C@@H]([C@@H](C)O)C(=O)N[C@@H](C)C(=O)N[C@@H]([C@@H](C)O)C(=O)N1)[C@@H](C)O)C(=O)N[C@@H](C)C(=O)N[C@@H](CCC(=O)O)C(=O)N[C@@](C)(Cc1ccccc1)C(=O)N[C@@H](CC(C)C)C(=O)N[C@H](C(=O)N[C@@H](CCCNC(=N)N)C(=O)N[C@@H](CO)C(=O)N[C@@H](CO)C(=O)N[C@@H](CC(N)=O)C(=O)N(C)[C@@H](CC(N)=O)C(=O)N[C@@H](Cc1ccccc1)C(=O)NCC(=O)N1CCC[C@H]1C(=O)N[C@@H](CCCCNC(=O)CC[C@H](NC(=O)CC[C@H](NC(=O)CCCCCCCCCCCCCCCCCCC(=O)O)C(=O)O)C(=O)O)C(=O)N[C@@H](CC(C)C)C(=O)N1CCC[C@H]1C(=O)N1CCC[C@H]1C(=O)N[C@H](C(=O)N[C@@H](CCC(=O)O)C(=O)N[C@H](C(=O)NCC(=O)N[C@@H](CO)C(=O)N[C@@H](CC(N)=O)C(=O)N[C@H](C(=O)N[C@@H](Cc1ccc(O)cc1)C(N)=O)[C@@H](C)O)C(C)C)[C@@H](C)O)C(C)C
Ki (Amylin receptor AMY3; CALCR/RAMP3 (Rattus norvegicus, UniProt P32214+Q9JJ73); ligand displacement, radioligand; cell membranes): 0.000161 µM

CNC(=O)C12CC1C(n1cnc3c(NC)nc(C#Cc4ccccc4Cl)nc31)C(O)C2O (stereo not drawn)
Ki (Translocator protein (Tspo, Rattus norvegicus, UniProt P16257); binding; PDSP off-target screen): 0.48 µM

CC(=O)N[C@@H](CC(C)C)C(=O)N[C@@H](CC(C)C)C(=O)N[C@@H](CC(C)C)C(=O)N[C@@H](CC(C)C)C(=O)N[C@@H](CC(C)C)C(=O)N[C@@H](CCCNC(=N)N)C(=O)N[C@H](C(=O)N[C@@H](CCCCN)C(=O)N[C@@H](CCCNC(=N)N)C(N)=O)C(C)C
Ki (proprotein convertase 1/3 (human); inhibitor): 0.37 ± 0.08 µM

O=C(NO)c1cncc(OS(=O)(=O)Oc2ccc(Oc3ccccc3)cc2)c1
Ki (Histone deacetylase 1 (HDAC1, Homo sapiens, UniProt Q13547); enzyme activity, inhibitor, fluorescence): 1.33 µM

CC(=O)N[C@@H](CCCNC(=N)N)C(=O)N[C@H](C(=O)N[C@@H](CCCCN)C(=O)N[C@@H](CCCNC(=N)N)C(N)=O)C(C)C
Ki (proprotein convertase 1/3 (human); inhibitor): 10 ± 0.8 µM

CC(C)(C)n1nc(-c2ccc(Cl)cc2)c2c(N)ncnc21
Ki (Proto-oncogene tyrosine-protein kinase Src (SRC, Gallus gallus, UniProt P00523, K249E/P250E/Y527F); enzyme activity, inhibitor): 0.043 µM

A few entries again:
CC(=O)c1cc(O)c(=O)c(O)cc1C
Ki (Ribonuclease H1; enzyme activity, inhibitor, FRET heteroduplex cleavage; catalytic domain, free enzyme, with: 18-mer RNA/DNA substrate): 64.6 µM

COC1CN([C@H]2CC[C@H]([C@@]3(C)Oc4c(Cl)cc(C(=O)NCc5c(SC)cc(C)[nH]c5=O)c(C)c4O3)CC2)C1
log2 fold change (RNA-seq, refers to: YPEL4; human, whole blood; dose not given, 24 h; baseline: pretreatment baseline): 2.79
